Measured values gathered from unrelated publications.
Values joined by “and” are separate records of one study, mostly repeats; a detail may differ. ± gives the spread as reported.
Cell line: SK-MEL-28

SMILES = Cc1cccc(-c2cccc(C)n2)n1.Cc1cccc(-c2cccc(C)n2)n1.F[P-](F)(F)(F)(F)F.F[P-](F)(F)(F)(F)F.[Ru+2].c1cc2ccc3ccc(-c4nc5c6cccnc6c6ncccc6c5[nH]4)c4ccc(c1)c2c34; conditions = 1% O2, added: green light 523 nm, 100 J/cm2; how to read = reference: dark over light EC50; endpoint = phototoxicity index; result = 1
SMILES = [Cl-].[Cl-].[Ru+2].c1cnc2c(c1)ccc1cccnc12.c1cnc2c(c1)ccc1cccnc12.c1csc(-c2ccc(-c3nc4c5cccnc5c5ncccc5c4[nH]3)s2)c1; conditions = normoxia, added: green light 523 nm, 100 J/cm2; endpoint = phototherapeutic index; result = ~200
SMILES = O=C(Nc1nnc2c1c(-c1ccc(Cl)cc1)nc1sc(=Cc3ccco3)c(=O)n12)c1ccccc1 (mixture of isomers); assay = SRB; conditions = 10 µM, NCI60 single-dose screen; how to read = reference: untreated; endpoint = cell growth; result = 48.1%
SMILES = Cc1cccc(-c2cccc(C)n2)n1.Cc1cccc(-c2cccc(C)n2)n1.F[P-](F)(F)(F)(F)F.F[P-](F)(F)(F)(F)F.[Ru+2].c1ccc2c(-c3nc4c5cccnc5c5ncccc5c4[nH]3)c3ccccc3cc2c1; assay = cell viability; conditions = normoxia, added: green light 523 nm, 100 J/cm2; endpoint = EC50; result = 2.31 ± 0.07 µM
SMILES = CCCC(CCC)C(=O)OCc1cn(-c2cc3ccccc3oc2=O)nn1; assay = NCI60 single-dose screen; conditions = 10 µM; endpoint = growth percentage; result = 100%
SMILES = CC(C)(C)c1cc(-c2ccc3cccnc3n2)nc(-c2ccc3cccnc3n2)c1.COc1ccncc1.[Cl-].[Cl-].[Ru+2].c1ccc2cc3nc4c5cccnc5c5ncccc5c4nc3cc2c1; conditions = visible light, oxygen 1%; how to read = reference: dark EC50 over light EC50; endpoint = phototherapeutic index; result = 1
SMILES = Cc1ccnc(-c2cc(C)ccn2)c1.Cc1ccnc(-c2cc(C)ccn2)c1.F[P-](F)(F)(F)(F)F.[Ru+2].[c-]1cccc2c1c1ncccc1c1[nH]c(-c3ccc(-c4ccc(-c5cccs5)s4)s3)nc21; assay = cell growth or viability, resazurin; conditions = dark; endpoint = EC50; result = 5 µM and 5.1 µM and 5.11 µM
SMILES = Cc1cccc(-c2cccc(C)n2)n1.Cc1cccc(-c2cccc(C)n2)n1.F[P-](F)(F)(F)(F)F.F[P-](F)(F)(F)(F)F.[Ru+2].c1ccc(-c2nc3c4cccnc4c4ncccc4c3[nH]2)cc1; conditions = 1% O2, added: blue light 453 nm, 100 J/cm2; how to read = reference: dark over light EC50; endpoint = phototoxicity index; result = 3
SMILES = [Cl-].[Cl-].[Ru+2].c1ccc(-c2ccccn2)nc1.c1ccc(-c2ccccn2)nc1.c1ccc2cc3nc4c5cccnc5c5ncccc5c4nc3cc2c1; assay = cell viability; conditions = dark, hypoxia 1 % oxygen; endpoint = EC50; result = 136 ± 3 µM

Repeated from above:
SMILES = CC(C)(C)c1cc(-c2ccc3cccnc3n2)nc(-c2ccc3cccnc3n2)c1.COc1ccncc1.[Cl-].[Cl-].[Ru+2].c1ccc2cc3nc4c5cccnc5c5ncccc5c4nc3cc2c1; conditions = visible light, oxygen 1%; how to read = reference: dark EC50 over light EC50; endpoint = phototherapeutic index; result = 1
